# Published values pooled from the literature.
# Each line is one published result; not all experiments were run side by side.
# Target: Cytochrome P450 2D6 (CYP2D6, Homo sapiens, UniProt P10635)
# UniProt P10635, sequence (whole entry, looked up): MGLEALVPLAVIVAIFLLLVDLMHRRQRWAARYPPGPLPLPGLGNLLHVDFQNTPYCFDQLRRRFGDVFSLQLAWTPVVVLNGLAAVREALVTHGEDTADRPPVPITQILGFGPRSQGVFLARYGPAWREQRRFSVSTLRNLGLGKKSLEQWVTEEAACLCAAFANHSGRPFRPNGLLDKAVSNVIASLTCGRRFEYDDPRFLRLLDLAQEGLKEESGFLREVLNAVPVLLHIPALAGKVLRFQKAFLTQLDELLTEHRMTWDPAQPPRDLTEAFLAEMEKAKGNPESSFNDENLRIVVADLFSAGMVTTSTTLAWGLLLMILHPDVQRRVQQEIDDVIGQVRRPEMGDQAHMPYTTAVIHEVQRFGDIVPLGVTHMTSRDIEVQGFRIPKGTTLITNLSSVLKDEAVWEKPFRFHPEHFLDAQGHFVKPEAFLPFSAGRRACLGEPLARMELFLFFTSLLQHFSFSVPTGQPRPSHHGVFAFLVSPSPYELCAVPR
SMILES,test,system,conditions,IC50 [µM]
C=C(NC(=O)c1csc(-c2nc3c(cc2O)-c2nc(cs2)C(=O)NC(C(C)O)C(=O)NC(=C(C)OC)c2nc(cs2)C(=O)NC2c4nc(cs4)C(=O)NC(COC(=O)c4c5c6c(cccc6n4O)COC(=O)C(OC4CC(C)(O)C(N(C)C)C(C)O4)C2OC5)c2nc-3cs2)n1)C(N)=O (stereo not shown),"enzyme activity, inhibitor","human, liver microsomes",pH 7.4,> 50
CC(C)(C)n1ncc2c(=O)n(Cc3cccc(F)c3)c(NCc3ccc(F)cn3)nc21,"enzyme activity, inhibitor",,,7.8
O=C(NC1CCC(F)(F)CC1)C(c1cncnc1)N(C(=O)C(F)Cl)c1ccc(OC(F)(F)F)cc1 (stereo not shown),"enzyme activity, inhibitor",,10 (unit not given),44.5
CCC1(CC)CC(=O)N(C2c3cc(C(=O)NC4c5ccccc5CC4O)ccc3OC2(C)COC)C(=N)N1 (stereo not shown),"enzyme activity, inhibitor",,,19.3
Cc1[nH]nc2c1N=C(c1ccccc1Cl)c1cnc(N3CCOCC3)cc1N2,"enzyme activity, inhibitor","human, liver microsomes",,> 10
OCC1OC(n2cnc3c(NCc4ccc(Br)s4)ncnc32)C(O)C1O (stereo not shown),"enzyme activity, inhibitor, fluorescence",,"pH 7.4, together with: AMMC",> 10
CCC1(CC)CC(=O)N(C2CCOc3ccc(C(=O)NC4CC(C)(C)Oc5ccccc54)cc32)C(=N)N1 (stereo not shown),"enzyme activity, inhibitor",,,> 20
C[C@H]1CN(C(=O)c2cn(-c3ccnc(N)n3)c3cc(C#CC4(O)CCCCC4)ccc23)CCN1,"enzyme activity, inhibitor","human, liver microsomes",10 min,> 50
N=C(N)SCc1ccccc1CSC(=N)N,"enzyme activity, inhibitor",,,8.1
NC(=O)c1ccc(C(=O)NOCc2ccc(Sc3cccc(Cl)c3)c(C(F)(F)F)c2)cc1,,pooled human liver microsomes,20 min,12.7

# Repeated from above:
SMILES,test,system,conditions,IC50 [µM]
C[C@H]1CN(C(=O)c2cn(-c3ccnc(N)n3)c3cc(C#CC4(O)CCCCC4)ccc23)CCN1,"enzyme activity, inhibitor","human, liver microsomes",10 min,> 50
